Experimental data of several laboratories.
Every numbered part comes from another study and shows a few of its results, in no order. Values joined by “and” are separate records of one study, mostly repeats; a detail may differ.

Sample 1
Organism: Sarcocystis neurona
Observed: parasite growth
Tested at: 10 µM
Time: 96 h
Notes: second screen
Relative to: untreated
SMILES	log2 fold change
C[C@]12CCC(=O)C=C1CC[C@@H]1[C@@H]2CC[C@@]2(C)[C@H]1CC[C@]2(C)O	-0.18
CC(NC(C)(C)C)C(=O)c1cccc(Cl)c1 (centres unmarked)	0.01
CN1CCCC(n2nc(Cc3ccc(Cl)cc3)c3ccccc3c2=O)CC1 (centres unmarked)	-2.67
CCCC(C)(COC(N)=O)COC(=O)NC(C)C (centres unmarked)	0.41
O=C1CN=C(c2ccccc2)c2cc([N+](=O)[O-])ccc2N1	0.42
CC(C)N(CCC(C(N)=O)(c1ccccc1)c1ccccn1)C(C)C (centres unmarked)	0.55
CCN(C(C)=O)c1cccc(-c2ccnc3c(C#N)cnn23)c1	0.52
Cc1ncc2n1-c1ccc(Cl)cc1C(c1ccccc1F)=NC2	0.19
c1ccc2c3c([nH]c2c1)CNCC3	0.64
Oc1c(Cl)cc(Cl)c2cccnc12	-4.61
O=c1[nH]cc(F)c(=O)[nH]1	-1.3
C=C1C[C@@H]2[C@H](CC[C@]3(C)C(=O)CC[C@@H]23)[C@@]2(C)C=CC(=O)C=C12	0.3

Sample 2
Cell line: HEK-293T/ACE2
Tested at: 10 µM
Time: 16 h
Relative to: vehicle
Compound	viability
CO/N=C(\C(=O)N[C@@H]1C(=O)N2C(C(=O)OCOC(=O)C(C)(C)C)=C(/C=C\c3scnc3C)CS[C@H]12)c1csc(N)n1	94.3%
NC(=O)N[C@@H](CCC(=O)O)C(=O)O	99.4%
N[C@@H](Cc1ccc(O)c(O)c1)C(=O)O	100%
CCS(=O)(=O)CCn1c([N+](=O)[O-])cnc1C	94.2%
CN(C)CCC=C1c2ccccc2CCc2ccccc21	100%
CO/N=C(\C(=O)N[C@@H]1C(=O)N2C(C(=O)O)=C(COC(C)=O)CS[C@H]12)c1csc(N)n1	103%
C#C[C@]1(O)CC[C@H]2[C@@H]3CCc4cc(O)ccc4[C@H]3CC[C@@]21C	86.2%
CC(=O)N[C@@H](CS)C(=O)O	103%
CC(C)[C@H]1CC[C@H](C(=O)N[C@H](Cc2ccccc2)C(=O)O)CC1	103%
Oc1ccc(OCc2ccccc2)cc1	81.6%
CCCCCCCCCCCCCCCCCCCCCCO	102%
CN1CC(=O)N2[C@H](c3ccc4c(c3)OCO4)c3[nH]c4ccccc4c3C[C@@H]2C1=O	99.1%
CN(C)CCCN1c2ccccc2Sc2ccccc21	96.7%
Cc1cccc(C)c1NC(=O)C1CCCCN1C (centres unmarked)	100%

Sample 3
SMILES: CC(C)S(=O)(=O)c1ccc2nccc(Nc3ccc4sc(C5CCCC5)nc4c3)c2c1.Cl
Method: CCK-8
cell line	tested at	added	survival
L929 RIPK3-/- reexpressing RIPK3 K51A/R69H	1.563 µM	zVAD	99% and 101% and 98.5% and 95.3% and 83.2%
L929 RIPK3-/- reexpressing RIPK3 K51A	25 µM	zVAD	89.2% and 113% and 110% and 85.7% and 90.9%
L929 RIPK3-/- reexpressing RIPK3 K51A/R69H	12.5 µM	zVAD	98% and 96.2% and 101% and 83.3% and 98.8%
L929 RIPK3-/- reexpressing RIPK3 K51A/R69H	6.25 µM	–	86.2% and 96.5% and 102% and 84.2% and 104%
L929 RIPK3-/- reexpressing RIPK3 K51A/R69H	3.125 µM	zVAD	93.7% and 99.1% and 96.3% and 88.5% and 95.9%

Other studies, line by line
SMILES	method	quantity	result
CCOC(=O)[C@@H]1CSCC(=O)N[C@H](CC)C(=O)N(C)[C@@H](C)C(=O)N[C@@H](CC(C)C)C(=O)N(C)[C@H](C)C(=O)N(CC(C)C)CC(=O)N[C@@H](CC(C)C)C(=O)N(C)[C@H](C)C(=O)N[C@@H](CC(C)C)C(=O)N1C	PRP-column chromatography	log k' (60)	0.69

Repeated from above (sample 1):
SMILES	log2 fold change
CC(C)N(CCC(C(N)=O)(c1ccccc1)c1ccccn1)C(C)C (centres unmarked)	0.55
Cc1ncc2n1-c1ccc(Cl)cc1C(c1ccccc1F)=NC2	0.19
c1ccc2c3c([nH]c2c1)CNCC3	0.64
